{"data": "Results pooled from the literature", "note": "Each line is one published result; not all experiments were run side by side. Numbers after ± are the reported error.", "sequence of UniProt P48736 (whole entry, looked up)": "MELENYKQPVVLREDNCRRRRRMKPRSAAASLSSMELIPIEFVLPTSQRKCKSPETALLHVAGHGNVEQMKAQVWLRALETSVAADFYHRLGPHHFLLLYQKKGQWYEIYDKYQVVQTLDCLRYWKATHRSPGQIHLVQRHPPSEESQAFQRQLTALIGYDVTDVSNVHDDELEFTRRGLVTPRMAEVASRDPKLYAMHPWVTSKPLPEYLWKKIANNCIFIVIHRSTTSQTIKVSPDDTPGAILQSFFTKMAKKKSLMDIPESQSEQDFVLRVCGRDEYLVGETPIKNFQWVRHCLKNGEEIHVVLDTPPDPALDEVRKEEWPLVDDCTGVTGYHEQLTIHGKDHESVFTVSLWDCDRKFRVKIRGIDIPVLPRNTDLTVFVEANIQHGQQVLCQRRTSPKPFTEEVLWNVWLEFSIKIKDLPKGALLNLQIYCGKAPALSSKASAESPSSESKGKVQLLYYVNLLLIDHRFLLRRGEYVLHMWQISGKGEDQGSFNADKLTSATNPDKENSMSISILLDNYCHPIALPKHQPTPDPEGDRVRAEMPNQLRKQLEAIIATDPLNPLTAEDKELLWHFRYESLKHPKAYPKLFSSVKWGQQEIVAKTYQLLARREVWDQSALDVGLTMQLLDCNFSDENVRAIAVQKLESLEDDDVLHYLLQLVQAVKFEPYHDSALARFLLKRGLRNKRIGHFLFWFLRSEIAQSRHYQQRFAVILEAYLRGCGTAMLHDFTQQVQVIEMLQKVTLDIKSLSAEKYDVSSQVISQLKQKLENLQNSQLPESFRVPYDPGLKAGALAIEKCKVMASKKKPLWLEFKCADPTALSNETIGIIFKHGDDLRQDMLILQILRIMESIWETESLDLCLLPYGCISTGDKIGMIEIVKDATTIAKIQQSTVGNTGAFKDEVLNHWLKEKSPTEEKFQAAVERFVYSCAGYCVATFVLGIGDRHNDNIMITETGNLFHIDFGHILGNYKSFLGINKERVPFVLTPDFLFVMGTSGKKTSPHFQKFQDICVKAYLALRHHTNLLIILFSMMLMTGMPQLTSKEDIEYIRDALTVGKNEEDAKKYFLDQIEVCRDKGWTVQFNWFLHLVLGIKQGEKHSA"}
{"Compound": "Cc1ccc(N2CC3CN(C)CC3C2)cc1C(=O)N[C@H](C)c1cc(-c2cnn(C)c2)nc2ccccc12 (stereo partly shown)", "tested on": "African green monkey cells", "setting": "31.25 µM", "measurement": "viability", "result": "100%"}
{"Compound": "CC(=O)NCCCC[C@@H]1NC(=O)[C@H](Cc2c[nH]c3c(C)cccc23)NC(=O)[C@H]([C@@H](C)O)NC(=O)[C@H](CC(N)=O)NC(=O)[C@@H](NC(C)=O)C(C)(C)SSC(C)(C)[C@@H](C(=O)N[C@@H](Cc2ccc(OCCN)cc2)C(=O)N[C@@H](Cc2ccc3ccccc3c2)C(=O)NC2(C(=O)N[C@@H](CCC(=O)O)C(=O)N[C@@H](CC(N)=O)C(=O)N[C@@H](Cc3cccnc3)C(=O)N(C)CC(N)=O)CCOCC2)NC1=O", "assay": "equilibrium dialysis", "system": "albumin plus glycoprotein", "setting": "0.1 µM, albumin 4%, glycoprotein 0.07%", "measurement": "protein binding", "result": "25.8 ± 3.2%"}
{"Compound": "CS(C)(=O)=Nc1ccc(-c2ccc(-c3nc4cc(O[C@@H]5CO[C@H]6[C@@H]5OC[C@H]6O)[nH]c4cc3F)cc2)cc1", "tested on": "Phosphatidylinositol 4,5-bisphosphate 3-kinase catalytic subunit gamma isoform (PIK3CG, Homo sapiens, UniProt P48736)", "assay": "enzyme activity, inhibitor", "setting": "10 µM", "measurement": "inhibition", "result": "5%"}
{"Compound": "CN[C@H](CC(C)C)C(=O)N[C@H]1C(=O)N[C@@H](CC(N)=O)C(=O)N[C@H]2C(=O)N[C@H]3C(=O)N[C@H](C(=O)N[C@H](C(=O)O)c4cc(O)cc(O)c4-c4cc3ccc4O)[C@H](O)c3ccc(c(Cl)c3)Oc3cc2cc(c3O[C@@H]2O[C@H](CO)[C@@H](O)[C@H](O)[C@H]2O[C@H]2C[C@](C)(NCc3ccc(-c4ccc(Cl)cc4)cc3)[C@H](O)[C@H](C)O2)Oc2ccc(cc2Cl)[C@H]1O", "system": "mouse, plasma", "setting": "intravenous, 75 mg/kg", "measurement": "Vd", "result": "1.24 L/kg"}
{"Compound": "CC[C@H](C)[C@H](NC(=O)[C@H](CCCCN)NC(=O)CNC(=O)[C@H](CC(C)C)NC(=O)[C@H](Cc1ccccc1)NC(=O)[C@H](CCCCN)NC(=O)[C@H](CO)NC(=O)[C@H](Cc1ccccc1)NC(=O)[C@H](Cc1c[nH]c2ccccc12)NC(=O)[C@H](CCC(N)=O)NC(=O)[C@@H](NC(=O)[C@H](Cc1ccccc1)NC(=O)CCCCCNC(=O)CN1CCN(CC(=O)O)CCN(CC(=O)O)CCN(CC(=O)O)CC1)C(C)C)C(=O)N[C@@H](CCC(=O)O)C(=O)N1CCC[C@H]1C(=O)N[C@@H](CC(=O)O)C(=O)N[C@H](C(=O)N[C@@H](CO)C(=O)N[C@@H](CCC(N)=O)C(=O)N[C@H](C(=O)N[C@@H](CCC(N)=O)C(=O)N[C@@H](CC(=O)O)C(=O)N1CCC[C@H]1C(=O)N[C@@H](CC(N)=O)C(=O)N[C@@H](CC(=O)O)C(=O)N[C@@H](CCC(N)=O)C(=O)N[C@@H](Cc1ccc(O)cc1)C(=O)N[C@@H](CCC(=O)O)C(=O)N1CCC[C@H]1C(=O)N[C@@H](Cc1ccccc1)C(=O)O)C(C)C)C(C)C [copper-64 labelled]", "system": "C57BL/6 mice, male, tumour-free, spleen", "setting": "4 h", "measurement": "tissue uptake", "result": "2.42 ± 0.8 %ID/g"}
{"Compound": "Cc1nc2cccc(OCC(C)(C)C(=O)NC(C)C)c2c(N)c1C(=O)[O-].[Na+]", "tested on": "Salmonella typhimurium", "assay": "Ames preincubation", "system": "TA1535", "setting": "0.80 mg/plate, with: with rat liver S9", "measurement": "revertant colonies", "result": "17 ± 4 colonies/plate"}
{"Compound": "CC(C)(C)C(=O)OCOP(=O)(OCOC(=O)C(C)(C)C)C1CCCN(O)C1=O (stereo not shown)", "tested on": "OVCAR-4", "measurement": "TGI", "result": "59.7 µM"}
{"Compound": "CCCC[C@H]1C(=O)N(C)[C@@H](CCCC)C(=O)N[C@@H](CCCNC(=O)CN2CCN(CC(=O)O)CCN(CC(=O)O)CCN(CC(=O)O)CC2)C(=O)N[C@H](C(=O)NCC(N)=O)CSCC(=O)N[C@@H](Cc2ccc(O)cc2)C(=O)N(C)[C@@H](C)C(=O)N[C@@H](CC(N)=O)C(=O)N2CCC[C@H]2C(=O)N[C@@H](Cc2c[nH]cn2)C(=O)N[C@@H](CC(C)C)C(=O)N(C)CC(=O)N[C@@H](Cc2c[nH]c3ccccc23)C(=O)N[C@@H](CO)C(=O)N[C@@H](Cc2c[nH]c3ccccc23)C(=O)N1C [gallium-68 labelled]", "system": "NOD/SCID mice, CHO-hPD-L1 xenograft, bone", "setting": "60 min, PBS pretreatment", "measurement": "tissue uptake", "result": "1.65 ± 0.5 %ID/g"}
{"Compound": "N#[11C]c1ccc(-c2csc(NN=C3CCCC3)n2)cc1", "system": "C57BL/6 mouse, male", "setting": "intravenous, 3 MBq, 1 min", "measurement": "uptake in large intestine with contents", "result": "1.97 ± 0.13 %ID/g"}
{"Compound": "Cc1ccc(N2CC3CCC(C2)N3C)cc1C(=O)N[C@H](C)c1cc(-c2cnn(C)c2)nc2ccccc12", "tested on": "African green monkey cells", "setting": "3.906 µM", "measurement": "viability", "result": "97.1%"}
{"Compound": "CC[C@H](C)[C@H](NC(=O)[C@H](CCCNC(=N)N)NC(=O)[C@H](CCCNC(=N)N)NC(=O)[C@H](CC(C)C)NC(=O)[C@H](Cc1c[nH]c2ccccc12)NC(=O)[C@H](CCCCN)NC(=O)[C@H](CCCNC(=N)N)NC(=O)[C@H](CCCCN)NC(=O)[C@H](CCCNC(=N)N)NC(=O)[C@H](CCCNC(=N)N)NC(=O)CN)C(=O)NCC(=O)N[C@@H](CCCCN)C(=O)NCC(=O)N[C@H](C(=O)N[C@@H](CCCCN)C(=O)N[C@H](C(=O)N[C@H](C(=O)NCC(=O)NCC(=O)N[C@@H](C)C(=O)N[C@@H](C)C(=O)N[C@@H](CC(C)C)C(=O)N[C@@H](CC(=O)O)C(=O)N[C@@H](Cc1c[nH]cn1)C(=O)N[C@@H](CC(C)C)C(N)=O)[C@@H](C)CC)[C@@H](C)CC)C(C)C", "system": "zebrafish embryos 28 hpf, E3 medium", "setting": "1 h", "measurement": "acute toxic concentration", "result": "25 µM"}
{"Compound": "CN1Cc2cc(Cl)ccc2-n2c(nnc2C2CCN(c3cccc([18F])n3)CC2)C1", "assay": "PET two-tissue compartment model", "system": "rhesus monkey, amygdala", "setting": "intravenous, dose not given, 80 min scan, baseline scan", "measurement": "total volume of distribution", "result": "1.13 ± 0.37 mL/cm3"}
{"Compound": "CC(C)[C@H](NC(=O)[C@@H](NC(=O)[C@H](CCCNC(=N)N)NC(=O)[C@H](CCCNC(=N)N)NC(=O)[C@H](CCCNC(=N)N)NC(=O)[C@H](CCC(N)=O)NC(=O)[C@H](CCCNC(=N)N)NC(=O)[C@H](CCCNC(=N)N)NC(=O)[C@H](CCCCN)NC(=O)[C@H](CCCCN)NC(=O)[C@H](CCCNC(=N)N)NC(=O)CN)[C@@H](C)O)C(=O)N[C@H](C(=O)N[C@@H](CO)C(=O)N1CCC[C@H]1C(=O)O)[C@@H](C)O", "system": "ICR mice, female, stomach", "setting": "intranasal, 20 mg/kg daily, 4 weeks", "measurement": "organ weight", "result": "0.342 ± 0.03 g"}
{"Compound": "CCN(CCCCOc1ccc(CCC(=O)N2CCC(Cc3ccccc3)CC2)cc1OC)Cc1ccccc1", "system": "Sprague-Dawley rats, both sexes, urine", "setting": "oral gavage, 25 mg/kg, 12 to 24 h", "how to read": "reference: dose", "measurement": "excretion rate", "result": "0.0058 ± 0.0025%"}
{"Compound": "CC(C)=CCC/C(C)=C\\CCn1cc(CC(P(=O)(O)O)P(=O)(O)O)nn1", "system": "CD-1 mouse, lung", "setting": "intravenous, 0.5 mg/kg, 168 h, single dose", "measurement": "concentration", "result": "not detected"}
{"Compound": "COc1ccccc1-c1n[nH]c2nc(NC3CCN(C(=O)Cc4ccc(F)cc4F)CC3)ncc12", "assay": "bead binding, competition bead pull-down, measured: LINJ.36.0780", "system": "Leishmania donovani axenic amastigote extract", "setting": "10 µM", "how to read": "reference: vehicle", "measurement": "relative abundance", "result": 0.61}
{"Compound": "C=Cc1c(C)c2cc3nc(c(CC(=O)[O-])c4[n-]c(cc5nc(cc1[n-]2)C(C)=C5CC)c(C)c4C(=O)[O-])C(CCC(=O)[O-])C3C.[Cu+2].[Na+].[Na+].[Na+] (stereo not shown)", "system": "Wistar rat, male", "setting": "oral, 500 mg/kg daily, 28 days", "measurement": "serum cholesterol", "result": "42.8 ± 11.2 mg/dL"}
{"Compound": "CSCC[C@H](N)C(=O)N[C@@H](C)C(=O)N[C@@H](CCCNC(=N)N)C(=O)N[C@@H](CCCNC(=N)N)C(=O)N[C@@H](CC(=O)O)C(=O)N[C@@H](CCCCN)C(=O)N[C@H](C(=O)N[C@@H](CC(=O)O)C(=O)N[C@@H](Cc1ccccc1)C(=O)N[C@@H](C)C(=O)N[C@@H](CCCNC(=N)N)C(=O)N[C@@H](CCCNC(=N)N)C(=O)N[C@@H](CCCNC(=N)N)C(=O)N[C@@H](CCCNC(=N)N)C(=O)NCCCCCC(=O)NCCCCC(NC(=O)CCCCCNC(=O)[C@H](CCCNC(=N)N)NC(=O)[C@H](CCCNC(=N)N)NC(=O)[C@H](CCCNC(=N)N)NC(=O)[C@H](CCCNC(=N)N)NC(=O)[C@H](C)NC(=O)[C@H](Cc1ccccc1)NC(=O)[C@H](CC(=O)O)NC(=O)[C@@H](NC(=O)[C@H](CCCCN)NC(=O)[C@H](CC(=O)O)NC(=O)[C@H](CCCNC(=N)N)NC(=O)[C@H](CCCNC(=N)N)NC(=O)[C@H](C)NC(=O)[C@@H](N)CCSC)[C@@H](C)O)C(=O)NCCCCC(NC(=O)C(CCCCNC(=O)CCCCCNC(=O)[C@H](CCCNC(=N)N)NC(=O)[C@H](CCCNC(=N)N)NC(=O)[C@H](CCCNC(=N)N)NC(=O)[C@H](CCCNC(=N)N)NC(=O)[C@H](C)NC(=O)[C@H](Cc1ccccc1)NC(=O)[C@H](CC(=O)O)NC(=O)[C@@H](NC(=O)[C@H](CCCCN)NC(=O)[C@H](CC(=O)O)NC(=O)[C@H](CCCNC(=N)N)NC(=O)[C@H](CCCNC(=N)N)NC(=O)[C@H](C)NC(=O)[C@@H](N)CCSC)[C@@H](C)O)NC(=O)CCCCCNC(=O)[C@H](CCCNC(=N)N)NC(=O)[C@H](CCCNC(=N)N)NC(=O)[C@H](CCCNC(=N)N)NC(=O)[C@H](CCCNC(=N)N)NC(=O)[C@H](C)NC(=O)[C@H](Cc1ccccc1)NC(=O)[C@H](CC(=O)O)NC(=O)[C@@H](NC(=O)[C@H](CCCCN)NC(=O)[C@H](CC(=O)O)NC(=O)[C@H](CCCNC(=N)N)NC(=O)[C@H](CCCNC(=N)N)NC(=O)[C@H](C)NC(=O)[C@@H](N)CCSC)[C@@H](C)O)C(N)=O)[C@@H](C)O (stereo partly shown)", "system": "C57BL/6 mouse female, skull", "setting": "dose not given, 6 h", "how to read": "reference: total", "measurement": "mean tissue distribution", "result": "13.9%"}
{"Compound": "O=C1NC2(CC2)COc2ncc(F)cc2[C@H]2COCCN2c2ccn3ncc1c3n2", "system": "Sprague-Dawley rat, female, spleen", "setting": "oral, 2.5 mg/kg/day, 4 weeks dosing, end of recovery", "measurement": "organ-to-brain weight ratio", "result": "41.9 ± 11.3%"}
{"note": "Some of these lines once more:"}
{"Compound": "COc1ccccc1-c1n[nH]c2nc(NC3CCN(C(=O)Cc4ccc(F)cc4F)CC3)ncc12", "assay": "bead binding, competition bead pull-down, measured: LINJ.36.0780", "system": "Leishmania donovani axenic amastigote extract", "setting": "10 µM", "how to read": "reference: vehicle", "measurement": "relative abundance", "result": 0.61}
{"Compound": "Cc1nc2cccc(OCC(C)(C)C(=O)NC(C)C)c2c(N)c1C(=O)[O-].[Na+]", "tested on": "Salmonella typhimurium", "assay": "Ames preincubation", "system": "TA1535", "setting": "0.80 mg/plate, with: with rat liver S9", "measurement": "revertant colonies", "result": "17 ± 4 colonies/plate"}
